Assay results from different studies.
± gives the spread as reported.

The AUC(0-t) of `Cn1cncc1[C@@](N)(c1ccc(Cl)cc1)c1ccc2c(c1)c(-c1cccc(Cl)c1)cc(=O)n2C` is reported as 6820 ng·h/mL (human patients; oral, 300 mg/m2, first dose, cycle 1, expanded cohort, median).
`CC[C@H](C)[C@@H]([C@@H](CC(=O)N1CCC[C@H]1[C@H](OC)[C@@H](C)C(=O)N[C@@H](Cc1ccccc1)C(=O)NCCCO)OC)N(C)C(=O)[C@@H](NC(=O)[C@H](C(C)C)N(C)C)C(C)C` gave an AUC(0-t) of 1540 ng·h/mL (human patients, plasma; intravenous, 36 mg/m², cycle 1 geometric mean).
With `CNC(=O)n1ccc2cc(Oc3ccnc(NC(=O)c4ccc(C5CCN(CCO)CC5)cc4)c3)c(OCCOC)cc21` the AUC(0-t) was 106 ng·h/mL (healthy human, plasma; oral, 35 mg, geometric mean, alone).
For `C[C@H]1CN(C(=O)CC#N)[C@]12CCN(c1ncnc3[nH]ccc13)C2`, the AUC(0-t) was 197 ng·h/mL (healthy human, plasma; oral, 6 mg single, median).
The AUC(0-t) of `CN(CC#N)C(=O)C[C@H](Nc1nc2ccccc2[nH]1)c1cccc(C(F)(F)F)c1` is reported as 23800 ± 5220 ng·h/mL (human; intravenous infusion, 3 mg/kg, 1 mg/mL formulation).
For `Cc1cc(C)c(CNC(=O)c2cc(Cl)c3c(c2C)O[C@@](C)([C@H]2CC[C@H](N(C)C)CC2)O3)c(=O)[nH]1`, the AUC(0-t) was 768 ng·h/mL (mean; healthy male humans, plasma; oral, 25 mg, day 1, alone, itraconazole group).
`CCN(CC)Cc1cc(Nc2ccnc3cc(Cl)ccc23)ccc1O` gave an AUC(0-t) of 151 ng·h/mL (human, both sexes, plasma; oral, dose not given, non-fixed combination).
`CC(C)n1c(Nc2cccnc2)nc2cnc(Nc3ccc(N4CCN(C)CC4)cc3)nc21` has an AUC(0-t) of 1100 ng·h/mL (human, male, plasma; oral, 100 mg, day 11, added: itraconazole 200 mg).
`COc1ccc([C@@H](O)c2cc(-c3ncnc4cc(N5CCOCC5)ccc34)c(F)cc2Cl)nn1` has an AUC(0-t) of 1260 ng·h/mL (healthy human volunteers, plasma; oral, 100 mg single dose, oral suspension, fasted, geometric mean).
`Cc1ccc(NC(=O)c2ccc(CN3CCN(C)CC3)cc2)cc1Nc1nccc(-c2cncc(-c3oncc3C)c2)n1` gave an AUC(0-t) of 97200 ± 23100 ng·h/mL (healthy human volunteers, plasma; oral, 200 mg/day, multiple ascending dose, steady state).
`Cl.[2H]C([2H])([2H])CC(=O)c1cnc(NC(=O)C2CC2)cc1Nc1cccc(-c2ncn(C([2H])([2H])[2H])n2)c1OC` gave an AUC(0-t) of 794 ng·h/mL (geometric mean; human; oral, 10 mg single dose, fasted, liquid).
With `CC(C)NC(=O)COc1cccc(-c2nc(Nc3ccc4[nH]ncc4c3)c3ccccc3n2)c1` the AUC(0-t) was 9200 ng·h/mL (human, male, fed, plasma; oral, 200 mg, day 3, adjusted geometric mean).
`NC(=S)NN=Cc1ncccc1N` has an AUC(0-t) of 784 ng·h/mL (human, plasma; intravenous, 50 mg, geometric mean).
For `CCn1cc(C(=O)N2CCOCC2)c(=O)c2cc(NC3Cc4ccccc4C3)cnc21`, the AUC(0-t) was 3730 ng·h/mL (humans, fasted, plasma; oral, 300 mg, single dose, suspension).
`[H]/N=C(/N)c1ccc(NCc2nc3cc(C(=O)N(CCC(=O)O)c4ccccn4)ccc3n2C)cc1` has an AUC(0-t) of 970 ng·h/mL (healthy human subjects, plasma; oral, 150 mg, dabigatran etexilate alone, geometric mean).
`COC(=O)N[C@@H](C)CNc1nccc(-c2cn(C(C)C)nc2-c2cc(Cl)cc(NS(C)(=O)=O)c2F)n1` gave an AUC(0-t) of 12700 ng·h/mL (human patients, plasma; oral, 450 mg twice daily, day 14, steady state, geometric mean, added: binimetinib 45 mg once daily).
`NC[C@@]1(CC(=O)O)[C@@H]2CC[C@H]3C[C@@H]2[C@@H]1C3` has an AUC(0-t) of 1730 ng·h/mL (human, normal renal function, plasma; oral, 20 mg single dose, geometric mean).
`C=CC(=O)N(C)CCOc1c(N)ncnc1-c1cc(F)cc(NC(=O)c2ccc(C3CC3)cc2F)c1C` gave an AUC(0-t) of 2.77 ng·h/mL (human, whole blood; oral, 5 mg, single ascending dose).
The AUC(0-t) of `O=C(O)c1cc(/N=N/c2ccc(S(=O)(=O)Nc3ccccn3)cc2)ccc1O` is reported as 67300 ng·h/mL (LC-MS; human, plasma; oral, 1000 mg, day 1).
`Cn1cc(-c2cn3nccc3c(-c3cnn([C@]4(CC#N)C[C@@H](C#N)C4)c3)n2)cn1` has an AUC(0-t) of 1380 ng·h/mL (healthy humans fasted, plasma; 100 mg single dose, geometric mean).
With `Cc1cc(-c2nnc(N)nc2-c2ccc(F)cc2)cc(Cl)n1` the AUC(0-t) was 1990 ng·h/mL (human patients, plasma; oral, 75 mg nanosuspension once daily, multiple doses, arithmetic mean).
With `CC(C)=CCC/C(C)=C/CC/C(C)=C/CC[C@@](C)(O)CCC1=C(C)C(=O)C(C)=C(C)C1=O` the AUC(0-t) was 3930 ng·h/mL (healthy human, plasma; oral, 400 mg, single dose, alone).
With `CC(C)c1nc(N(C)S(C)(=O)=O)nc(-c2ccc(F)cc2)c1/C=C/[C@@H](O)C[C@@H](O)CC(=O)O` the AUC(0-t) was 46.2 ng·h/mL (human, plasma; oral, 20 mg, day 2, geometric mean, alone).
`O=C(O)CCC(=O)O.[2H]C([2H])([2H])Oc1cc(C)c2[nH]ccc2c1CN1CC[C@@H](C2CC2)C[C@H]1c1ccc(C(=O)O)cc1` gave an AUC(0-t) of 123000 ng·h/mL (healthy humans, fasted, plasma; oral, 200 mg, single dose).
For `CO[C@H]1C[C@@H]2CC[C@@H](C)[C@@](O)(O2)C(=O)C(=O)N2CCCC[C@H]2C(=O)O[C@H]([C@H](C)C[C@@H]2CC[C@@H](OC(=O)NCCOCCOCCOCCOCCOCCOCCOCCOCCC(=O)N3CCc4cc(Cn5nc(-c6ccc7oc(N)nc7c6)c6c(N)ncnc65)ccc4C3)[C@H](OC)C2)C[C@@H](O)[C@H](C)/C=C(\C)[C@@H](O)[C@@H](OC)C(=O)[C@H](C)C[C@H](C)/C=C/C=C/C=C/1C`, the AUC(0-t) was 78 ng·h/mL (human, plasma; intravenous, 3 mg, cycle 1 day 1, arithmetic mean).
With `C=CCn1c(=O)c2cnc(Nc3ccc(N4CCN(C)CC4)cc3)nc2n1-c1cccc(C(C)(C)O)n1` the AUC(0-t) was 4.38 µM·h (human; oral, 125 mg twice daily, cycle 1 day 17, added: durvalumab 1500 mg IV; geometric mean).
`NC1(C(=O)N[C@@H](CCO)c2ccc(Cl)cc2)CCN(c2nc[nH]c3nccc2-3)CC1` gave an AUC(0-t) of 1330 ng·h/mL (human patients, plasma; dose not given, cohort 160/320, cycle 2, geometric mean).

A few entries again:
`CC(C)n1c(Nc2cccnc2)nc2cnc(Nc3ccc(N4CCN(C)CC4)cc3)nc21` has an AUC(0-t) of 1100 ng·h/mL (human, male, plasma; oral, 100 mg, day 11, added: itraconazole 200 mg).
`COc1ccc([C@@H](O)c2cc(-c3ncnc4cc(N5CCOCC5)ccc34)c(F)cc2Cl)nn1` has an AUC(0-t) of 1260 ng·h/mL (healthy human volunteers, plasma; oral, 100 mg single dose, oral suspension, fasted, geometric mean).
`Cc1ccc(NC(=O)c2ccc(CN3CCN(C)CC3)cc2)cc1Nc1nccc(-c2cncc(-c3oncc3C)c2)n1` gave an AUC(0-t) of 97200 ± 23100 ng·h/mL (healthy human volunteers, plasma; oral, 200 mg/day, multiple ascending dose, steady state).
